# Measured values collected from several papers.
# Compare with care: the assays were run in different laboratories.
Compound,test system,setting,Tmax
O=C(NCCCCc1ccccc1)n1c(=O)oc2cc(-c3ccc(F)cc3)ccc21,"CD-1 mouse, plasma","intravenous, 1 mg/kg",5 min
Nc1ccc(-c2cc(Cl)c(Cl)c3[nH]c4c(c23)CN(C(=O)CO)CC4)cn1,"C57BL/6 mouse, blood","intravenous, 0.5 mg/kg",5 min
Fc1cccc(-n2cc(-c3ccccc3)nc2NCc2ccc(C(F)(F)F)c(F)c2)c1,"male CD-1 mouse, intestine","intraperitoneal, 25 mg/kg, single dose",30 min
Fc1cncc(-c2ccc3[nH]c4ncnc(N[C@H]5CC[C@H](N6CCOCC6)CC5)c4c3c2)c1,"CD-1 mouse, plasma","oral, 10 mg/kg",5.88 min
Cc1cc(NC(=O)[C@H](O)c2cc(F)cc(F)c2)ccc1-c1cnc(N)c(C(=O)NC(C)C)c1,"female nude mouse, plasma","oral, 30 mg/kg, single dose",60 min
COc1ccc(C(=O)c2c(C(=O)NCCCN(C)C)oc3ccc(Cl)cc3c2=O)cc1OC,"male C57BL/6 mouse, liver","oral, 5 mg/kg",60 min
Cn1c2cc([S+](C)[O-])sc2c2cnn(Cc3cccc(N)c3)c(=O)c21 (stereo not shown),"male BALB/c mouse, plasma","intraperitoneal, 10 mg/kg, single dose",30 min
O=C(c1ccccc1)N1C(c2ccc(OCC3CCN(CCCF)C3)cc2)c2ccc(O)cc2CC12CC2 (stereo not shown),"C57BL/6 mouse, plasma","oral, 25 mg/kg",60 min
C/C(N)=N/C(=N\S(=O)(=O)c1ccc(C(F)(F)F)cc1)N1C[C@H](c2ccccc2)C(c2ccc(Cl)cc2)=N1,"male C57BL/6 mouse, lung","intravenous, 5 mg/kg",30 min
C[C@@H](Nc1nc2c(cnn2C(C)(C)C)c(=O)n1Cc1cccc(F)c1)c1ccc(Cl)cc1,"C57BL/6 mouse, plasma","oral, 5 mg/kg",240 min
Cn1ccc(-c2cc(Cl)c(Cl)c3[nH]c4c(c23)CN(C(=O)CO)CC4)n1,"C57BL/6 mouse, blood","oral, 100 mg/kg",140 min
CC[C@H](C)/C=C/C=C/C=C/C(O)=C/C(=O)C(F)(F)Cl,"female C57BL/6 mouse, plasma","oral, 25 mg/kg",30 min
O=S(=O)(N[C@H]1CCO[C@@H](C2c3ccc(F)cc3CCc3cc(F)ccc32)C1)c1ccc(OC(F)(F)F)cc1,"mouse, plasma","oral, 30 mg/kg",282 min
Fc1cccc(-n2cc(-c3ccccc3)nc2NCc2ccc(C(F)(F)F)c(Br)c2)c1,"male CD-1 mouse, plasma","intraperitoneal, 25 mg/kg, single dose",60 min
COc1cnc2cccc(N3CCc4c(cc(Cn5ccnc5)cc4-c4cn(C)nc4C(F)(F)F)C3=O)c2c1,"male CD-1 mouse, plasma","intraperitoneal, 50 mg/kg",30 min
O=C1CCC(N2C(=O)c3ccc(N4CCC(C(=O)N5CCC(CCN6CCC(CNC(=O)c7cccc(-c8noc(C(F)(F)F)n8)c7)(c7nc(-c8ccccc8)cs7)CC6)CC5)CC4)cc3C2=O)C(=O)N1 (stereo not shown),"CD-1 mouse, plasma","oral, 30 mg/kg",79.8 min
Cc1ncsc1-c1ccc(CNC(=O)[C@@H]2C[C@@H](O)CN2C(=O)[C@@H](NC(=O)COCC(C)(COCCOCCOCCNC(=O)C[C@@H]2N=C(c3ccc(Cl)cc3)c3c(sc(C)c3C)-n3c(C)nnc32)COCCOCCOCCNC(=O)C[C@@H]2N=C(c3ccc(Cl)cc3)c3c(sc(C)c3C)-n3c(C)nnc32)C(C)(C)C)cc1,"male C57BL/6 mouse, plasma","subcutaneous, 5 mg/kg, single dose",240 min
COC1C(c2ccc(Cl)c(Cc3ccc(OC4CCOC4)cc3)c2)OC(CO)C(O)C1O (stereo not shown),"CD-1 mouse, plasma","oral, 10 mg/kg",15 min
OCC1OC(n2cnc3c(NCc4ccc(Br)s4)ncnc32)C(O)C1O (stereo not shown),"male CD-1 mouse, blood","oral, 10 mg/kg",96 min
C[C@@]1(c2nc(-c3ccc(F)c4cn[nH]c34)no2)CCCN(C(=O)c2ccc(F)nc2)C1,"male C57BL/6 mouse, plasma","intraperitoneal, 20 mg/kg",19.8 min
CC[C@H](C)/C=C/C=C/C=C/C(O)=C/C(=O)C(F)(F)F,"female C57BL/6 mouse, plasma","oral, 25 mg/kg",30 min
O=C(O)c1ccc(/C=C2\SC(=S)N(Cc3cccc(C(F)(F)F)c3)C2=O)cc1,"C57BL/6 mouse, blood","oral, 10 mg/kg",30 min
COc1ccccc1/C=C/CNCC(O)COc1ccc(Nc2ccccc2)cc1 (racemic),"mouse, plasma","intraperitoneal, 10 mg/kg",4.98 min
O=C(OC(C(F)(F)F)C(F)(F)F)N1CCC(CNS(=O)(=O)c2ccc(Cl)cc2)CC1,"male SCID mouse, brain","oral, 10 mg/kg",240 min
CCn1cc(-c2cc(Cn3ccnc3)cc3c2CCN([C@H](c2cc(OC)ccn2)C2CC2)C3=O)c(C(F)(F)F)n1,"male CD-1 mouse, plasma","oral, 50 mg/kg",48 min

# A few entries again:
Compound,test system,setting,Tmax
Cc1ncsc1-c1ccc(CNC(=O)[C@@H]2C[C@@H](O)CN2C(=O)[C@@H](NC(=O)COCC(C)(COCCOCCOCCNC(=O)C[C@@H]2N=C(c3ccc(Cl)cc3)c3c(sc(C)c3C)-n3c(C)nnc32)COCCOCCOCCNC(=O)C[C@@H]2N=C(c3ccc(Cl)cc3)c3c(sc(C)c3C)-n3c(C)nnc32)C(C)(C)C)cc1,"male C57BL/6 mouse, plasma","subcutaneous, 5 mg/kg, single dose",240 min
COC1C(c2ccc(Cl)c(Cc3ccc(OC4CCOC4)cc3)c2)OC(CO)C(O)C1O (stereo not shown),"CD-1 mouse, plasma","oral, 10 mg/kg",15 min
OCC1OC(n2cnc3c(NCc4ccc(Br)s4)ncnc32)C(O)C1O (stereo not shown),"male CD-1 mouse, blood","oral, 10 mg/kg",96 min
C[C@@]1(c2nc(-c3ccc(F)c4cn[nH]c34)no2)CCCN(C(=O)c2ccc(F)nc2)C1,"male C57BL/6 mouse, plasma","intraperitoneal, 20 mg/kg",19.8 min
